Assay results pooled from the literature.
Each line is one published result; not all experiments were run side by side.
Sample: plasma

`CC(C)(C)[C@@H]1NC(=O)O[C@@H]2CCC[C@H]2OC/C=C/C(F)(F)c2nc3ccccc3nc2O[C@@H]2C[C@@H](C(=O)N[C@]3(C(=O)NS(=O)(=O)C4(C)CC4)C[C@H]3C(F)F)N(C2)C1=O` gave a Tmax of 3.5 h (human; oral, single dose).
With `CCc1nc2c(C)cc(N3CCN(CC(=O)N4CC(O)C4)CC3)cn2c1N(C)c1nc(-c2ccc(F)cc2)c(C#N)s1` the Tmax was 2 h (human; oral, 600 mg, fed, healthy volunteers).
`CS(=O)(=O)n1cc2c(n1)CN([C@H]1CO[C@H](c3cc(F)ccc3F)[C@@H](N)C1)C2` has a Tmax of 1 h (male human; oral, 10 mg, single dose, fasted).
For `NS(=O)(=O)OC[C@@H]1C[C@@H](n2ccc3c(N[C@H]4CCc5ccccc54)ncnc32)C[C@@H]1O`, the Tmax was 1.05 h (human; intravenous, 35 mg/m², patients).
The Tmax of `CC(C)n1nc(-c2ccc3oc(N)nc3c2)c2c(N)ncnc21` is reported as 2.63 h (human; oral, 20 mg, multiple doses, patients).
`CCCOc1ccc([C@H]2CNC(=O)N2c2ccc3[nH]cnc3c2)cc1` has a Tmax of 1 h (human; oral, 200 mg, single dose, fasted, healthy volunteers).
The Tmax of `O=C(COc1ccc(Cl)cc1)NC12CC(c3nnc([C@H]4C[C@@H](OC(F)(F)F)C4)o3)(C1)C2` is reported as 4 h (human; oral, 200 mg, multiple doses, once daily, steady state, healthy volunteers).
For `COc1ccc([C@@H](O)c2cc(-c3ncnc4cc(N5CCOCC5)ccc34)c(F)cc2Cl)nn1`, the Tmax was 2.28 h (human; oral, 200 mg, multiple doses, once daily, patients).
`CN1CC[C@@H](c2c(O)cc(O)c3c(=O)cc(-c4ccc(C(F)(F)F)cc4Cl)oc23)[C@@H]1CO` gave a Tmax of 4.2 h (human; oral, 150 mg, patients).

Some of these lines once more:
`CC(C)(C)[C@@H]1NC(=O)O[C@@H]2CCC[C@H]2OC/C=C/C(F)(F)c2nc3ccccc3nc2O[C@@H]2C[C@@H](C(=O)N[C@]3(C(=O)NS(=O)(=O)C4(C)CC4)C[C@H]3C(F)F)N(C2)C1=O` gave a Tmax of 3.5 h (human; oral, single dose).
